Measurements of several laboratories.
Numbered parts are unrelated; each lists some results of a single study. Substitutions count along the parent as printed.

Block 1 — method: RNA Bind-n-Seq; form: RNA; matrix: in vitro; tested at: 1 µM; notes: whole 134-nt RNA, ends assumed; with: 150 mM KCl; baseline: input library; direction: higher = stronger binding
Target: Ras GTPase-activating protein-binding protein 1, C-terminal RGG region (G3BP1, Homo sapiens, UniProt Q13283)
Chain of UniProt Q13283 (whole entry, looked up): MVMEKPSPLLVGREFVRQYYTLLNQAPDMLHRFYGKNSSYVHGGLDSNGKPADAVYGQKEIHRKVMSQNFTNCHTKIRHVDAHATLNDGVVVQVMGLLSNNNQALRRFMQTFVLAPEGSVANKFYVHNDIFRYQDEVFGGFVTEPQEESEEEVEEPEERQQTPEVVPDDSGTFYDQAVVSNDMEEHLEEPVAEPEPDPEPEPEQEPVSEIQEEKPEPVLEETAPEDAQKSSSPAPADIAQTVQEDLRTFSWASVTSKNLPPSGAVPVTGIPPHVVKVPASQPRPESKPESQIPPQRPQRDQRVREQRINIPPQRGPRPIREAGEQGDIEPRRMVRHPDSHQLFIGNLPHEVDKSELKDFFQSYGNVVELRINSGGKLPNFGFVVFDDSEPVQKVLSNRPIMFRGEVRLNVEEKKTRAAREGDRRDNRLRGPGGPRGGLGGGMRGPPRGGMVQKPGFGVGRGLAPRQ
Strand	log2 enrichment
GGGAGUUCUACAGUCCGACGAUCUGGCCCUGGUGGCAUGCGGGGAGGAAGAGGUGGCCUCAUGGAUCGUGGUGGUCCCGGUGGAAUGUUCAGAGGUGGCCGUGGUGGAGACACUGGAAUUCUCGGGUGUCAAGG	2.96
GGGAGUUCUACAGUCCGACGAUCUUACUUUAGAGGAGGAUCUGAUGGAUAUGGCAGUGGACGUGGAUUUGGGGAUGGCUAUAAUGGGUAUGGAGGAGGACCUGGAGGUGGCAAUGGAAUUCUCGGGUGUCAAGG	-1.15
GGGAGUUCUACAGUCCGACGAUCUCCUCAAGUCCUGUGCUACACAUCGUAUGUACCGAAUCGGAGGAGGGGAGGGAAAGUAUUAUGUUACGCCGUUCGGAUCUGCACUUCCAGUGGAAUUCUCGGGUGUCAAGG	-0.542
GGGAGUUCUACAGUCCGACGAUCACCAUGCAGGUGGGCAUCUUUGGGAAGUGGGGCAAGGGGGGGAUAGGGAGGGGGGUAACACUUUGGGAACAGGUGGUCCCAGGUCGAUUCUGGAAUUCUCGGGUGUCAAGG	1.42
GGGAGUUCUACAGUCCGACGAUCAGUCCUGUGCUACACAUCGUAUGUACCGAAUCGGGGAAAAGGGAAAAGGGAAAAGGGAAAGUAUUAUGUUACGCCGUUCGGAUCUGCACUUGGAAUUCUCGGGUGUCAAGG	1.17
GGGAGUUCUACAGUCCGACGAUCGUCCUGUGCUACACAUCGUAUGUACCGAAUCGGAAAAAGGGAAAAAGGGGAAAAAGGGGAAAGUAUUAUGUUACGCCGUUCGGAUCUGCAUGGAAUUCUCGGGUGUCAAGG	-0.824
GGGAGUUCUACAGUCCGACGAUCCCUGUGCUACACAUCGUAUGUACCGAAUCGGGUUUUUUUGGGUUUUUUUGGUUUUUUUGGAAAGUAUUAUGUUACGCCGUUCGGAUCUGCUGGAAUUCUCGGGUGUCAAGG	-1.18
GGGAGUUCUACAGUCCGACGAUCCCUCAAGUCCUGUGCUACACAUCGUAUGUACCGAAUCGGAGGUUUGGUUUGGAAAGUAUUAUGUUACGCCGUUCGGAUCUGCACUUCCAGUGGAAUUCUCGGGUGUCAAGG	-0.885
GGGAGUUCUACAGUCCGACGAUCUGUGCUACACAUCGUAUGUACCGAAUCGGGGAAAAAGGGGAAAAAAAGGGGUUUUUUUGGGGAAAGUAUUAUGUUACGCCGUUCGGAUCUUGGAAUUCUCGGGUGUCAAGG	1.13
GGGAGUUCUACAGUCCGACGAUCAAUGCCCACAAGGUCCCUCCCCCAUGGCUGAUUGCCAUGCAGCGAUAUGGACCACCCCCAUCGUAUCCCAACCUGAAAAUCCCUGGGCUGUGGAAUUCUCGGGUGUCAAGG	-0.462
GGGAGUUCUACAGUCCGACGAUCCUGUGCUACACAUCGUAUGUACCGAAUCGUGUGUGUGUGUGUGUGUGUGUGUGUGUGUGUGUAAAGUAUUAUGUUACGCCGUUCGGAUCUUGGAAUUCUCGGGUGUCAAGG	1.56
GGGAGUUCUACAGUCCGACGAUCGUCCUGUGCUACACAUCGUAUGUACCGAAUCAAACCCCCAAAUUUAAAUUUUUUUAAAAAAGUAUUAUGUUACGCCGUUCGGAUCUGCACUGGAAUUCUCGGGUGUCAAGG	-0.565
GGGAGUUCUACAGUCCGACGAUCCACAGACAACACGCACCCACACAGACACAGAGGGAAGGGGUUGGGAAAGGGACAGGGUGCACAGCAGGGCGGGGUAGGACCCCAGCCCCUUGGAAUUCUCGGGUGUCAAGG	-0.182
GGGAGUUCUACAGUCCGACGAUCACCAUGCAGGUGGGCAUCUUUGGGAAGUGGGGCAAGGGGGGGUUAGGGAGGGGGGUAACACUUUGGGAACAGGUGGUCCCAGGUCGUUUCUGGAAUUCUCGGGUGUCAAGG	2.13

Block 2 — target: CCND1, cyclin fold, Cln2 fusion (human); method: yeast growth competition, sequencing; matrix: yeast; notes: weak parent motif; baseline: not given; direction: higher = stronger binding
Starting sequence: E2F1 docking peptide (human); PPVKRRLDLETDH
Substitution	normalised enrichment score
K4A	1.69
P1F	0.922
V3T	0.217
L7K	0.267
P1G	0.659
E10N	0.45
K4Q	0.694
V3M	0.264
R6M	0.495
D8F	0.978
R5V	-0.44
E10R	-0.165
K4F	0.47
V3E	0.242

Block 3 — method: RNA Bind-n-Seq; form: RNA; matrix: in vitro; tested at: 365 nM; baseline: no-protein control; direction: higher = stronger binding
Target: RNA binding protein fox-1 homolog 2, RRM domain, GST-SBP tag (RBFOX2, Homo sapiens, UniProt O43251-10, residues 100-194)
Notes: natural RNA segment, single round, ends assumed
Residues (chain): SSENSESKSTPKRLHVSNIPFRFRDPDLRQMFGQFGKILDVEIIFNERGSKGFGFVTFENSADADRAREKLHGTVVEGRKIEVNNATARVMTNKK
Strand	RBNS enrichment (R)
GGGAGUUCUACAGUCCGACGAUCCCAAGCAGAGGCUCCCCUCAUGAAGGAAGCCAUUGCACUGUGAACACUGUACCUGCCUGCUGAACAGCCUGCCCCCGUCCAUCCAUGAGCCAGCAUCCGUCCGUCCUCCAUGGAAUUCUCGGGUGCCAA	6.91
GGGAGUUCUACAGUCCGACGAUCUUCGGUUUUACAAAGGAAGAACAGGUUUCCUAAGGCCGAGGAAAUCUUGGAGAAUAAAAAAGGACUUGGAAAACAAGUCUUAGUAGUCAUUCAGAGGACUCAAGUACUAGUGGAAUUCUCGGGUGCCAA	0.479
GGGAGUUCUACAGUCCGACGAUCUUUGUAUUGUUUCAAUUGCAUCUCCCAGAUAAUGUGAAAAUGGUCCAGGAGAAGGCCAAUUCCUAUACGCAGCGUGCUUUAAAAAAUAAAUAAGAAACAACUCUUUGAGAUGGAAUUCUCGGGUGCCAA	0.707
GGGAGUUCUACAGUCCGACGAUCUUGUUUGGGACCUGGGUACAGGUAAAAGCCAGACUUGGCAGGGACCCCUCUUUCUAGGCUGAACCUUGAGUCCCCCUGCUUUUUGGCAGACCUAAUGGAUCACUGUCUUGUGGAAUUCUCGGGUGCCAA	0.216
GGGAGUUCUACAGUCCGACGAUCGCUCCCUGCCCUCCGUGUGUGUCUGUUAUCUGGGGGAGAGGAGUGUGGAAGGGUUGGGGGAAGAGCUCCAGCCUGUCUGCUCCCCAGCUCUGUAGUGGCAGACCAGCGUCUGGAAUUCUCGGGUGCCAA	1.25
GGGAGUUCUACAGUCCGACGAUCUCACUGACGACAACAAAAGCUUAGUUUCUAGCAUGAGAGGCUAAACAGCCCCACACAGCUCUGAUUCCAUAGCUGCAUUAAAGAUGAUUAUUUAUAUUACAGAGAAAAGAUGGAAUUCUCGGGUGCCAA	2.41
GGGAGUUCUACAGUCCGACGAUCAAUUGUGGAUCAUUUACCUUGAGGCUGCAGAGUGGGUUCCAGGACUCUUACUUCACUGUGGAGGGACUUCGAGCAUCAGGUGGCUCUCUCAUGUUCCUGCCCCCUUUACUUGGAAUUCUCGGGUGCCAA	0.401
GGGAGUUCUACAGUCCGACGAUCCCCUGCCUAGAGGAGCACCAUCUACAGUUGUGCCAUUCCCCAGCCACUGCCUUCAUGCUGCCCCCGCCGGACUGGCAGAGCCAGGGGUCAGCCACCUGCCUUUGAGUCAUUGGAAUUCUCGGGUGCCAA	0.472
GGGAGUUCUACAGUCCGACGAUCUGGCUCACUGCAGCCUCGAACUCCUGGGCUCAAGCAAUCCUCCUGAGUGAUCCCAUUUCUUAAUCAGUGUAGCCCCAAGAAGGCUGGGGCUAUUUACCAGGGUAGAAAAAUGGAAUUCUCGGGUGCCAA	0.368
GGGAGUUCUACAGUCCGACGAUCAGUGGCACGAUUUAUUUCAAACUAGGCCAGCUGGGAUUCCAGCUUUUCUUCUACUAGUCUGAUGUUUUAUAAAUCAAAACCUGGUUUUCCUUCUCUGACAUUUUUUUUUUUGGAAUUCUCGGGUGCCAA	0.425
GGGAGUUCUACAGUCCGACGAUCUUUGCACCAGAAGCAUAUCAUUAUUUAUUGCUGUGAUUACUAUCUGUCAUCCACCUUGUACUAGAAAGUUUUAGCACUGAAUUAUUCCUUCUUCAUUGUUGUUUGUAUUUUGGAAUUCUCGGGUGCCAA	0.655
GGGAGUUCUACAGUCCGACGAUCUAGGGGCUCACAACCAAGGUCCGGAGGCAACACAUAGUGGGAGCUCUUCCCCAGCACAGGGCAGACAGUGCUCACAAACAUUUGCCACUGGCCAUUGUCUCUGGAUCCCCUGGAAUUCUCGGGUGCCAA	0.261

Block 4 — method: universal PBM; form: double-stranded DNA, one strand shown; matrix: in vitro; tested at: 600 nM; direction: higher = stronger binding
Target: Sal-like protein 4, full length isoform A (SALL4, Homo sapiens, UniProt Q9UJQ4, residues 1-1053)
Chain of UniProt Q9UJQ4 (whole entry, looked up): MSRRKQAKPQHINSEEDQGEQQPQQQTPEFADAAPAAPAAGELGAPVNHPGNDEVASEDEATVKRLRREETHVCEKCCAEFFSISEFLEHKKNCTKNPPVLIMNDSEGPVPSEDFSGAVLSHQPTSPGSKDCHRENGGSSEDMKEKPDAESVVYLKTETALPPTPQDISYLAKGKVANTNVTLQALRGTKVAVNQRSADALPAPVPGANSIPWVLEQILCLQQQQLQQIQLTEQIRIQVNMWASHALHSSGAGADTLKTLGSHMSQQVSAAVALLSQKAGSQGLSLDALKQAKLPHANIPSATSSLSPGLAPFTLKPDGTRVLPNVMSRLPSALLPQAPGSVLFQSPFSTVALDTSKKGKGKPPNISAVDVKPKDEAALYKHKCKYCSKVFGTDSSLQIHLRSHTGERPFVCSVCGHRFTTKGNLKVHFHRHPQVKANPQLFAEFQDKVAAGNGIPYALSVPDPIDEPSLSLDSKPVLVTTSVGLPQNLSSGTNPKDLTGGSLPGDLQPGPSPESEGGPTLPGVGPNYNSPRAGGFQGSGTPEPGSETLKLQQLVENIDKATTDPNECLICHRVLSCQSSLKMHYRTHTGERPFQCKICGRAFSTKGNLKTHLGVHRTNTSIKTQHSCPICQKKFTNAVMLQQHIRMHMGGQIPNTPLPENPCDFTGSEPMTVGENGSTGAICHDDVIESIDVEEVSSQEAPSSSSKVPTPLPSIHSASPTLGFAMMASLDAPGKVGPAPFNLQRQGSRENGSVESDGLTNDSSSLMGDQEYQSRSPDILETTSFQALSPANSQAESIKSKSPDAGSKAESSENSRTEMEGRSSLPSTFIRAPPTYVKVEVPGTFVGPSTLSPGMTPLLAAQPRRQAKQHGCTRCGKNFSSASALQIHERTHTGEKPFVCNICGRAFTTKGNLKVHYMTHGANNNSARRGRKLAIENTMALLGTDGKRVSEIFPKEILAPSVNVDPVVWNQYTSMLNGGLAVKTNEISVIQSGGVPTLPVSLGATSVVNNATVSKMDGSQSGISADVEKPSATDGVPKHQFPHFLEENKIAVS
Notes: 8-mer, flanks averaged, mean of replicates
Strand	E-score
CACATCGC	-0.103
GGAGTACA	-0.0291
CACGCCAC	-0.217
CCGGCTCA	-0.1
ATGACATA	0.3
CCTGTCTC	-0.148
CGGTCGTA	-0.172
AGGGGGGC	-0.383
CTCTGCTC	-0.198
AAGACGTA	0.169
ATTCCTGC	0.0246
AGTTAGAA	0.0737
TAAGTGGA	0.203
TGATAGAA	0.15
ACCTGACT	-0.00548
CATAGCCG	-0.014
GGCATGTA	0.11
GGGGGGAC	-0.351
ACTCTTCG	-0.0826
GTTACTAA	0.204
GCCTCAAA	-0.136
CGTGGTGA	-0.234
GGTAACAC	-0.0256
TAAAGTCA	0.205
CCGGCAAG	-0.317

Block 5 — method: DHFR PCA, deep sequencing; matrix: yeast; with: (+)-ABA 0.032 µM; baseline: wild-type fitted maximum; direction: higher = stronger binding
Target: ABI1, truncated, D143A, DHFR fusion (Arabidopsis thaliana)
Notes: methotrexate growth selection, single substitutions
Starting sequence: PYL1, truncated, DHFR fusion (Arabidopsis thaliana); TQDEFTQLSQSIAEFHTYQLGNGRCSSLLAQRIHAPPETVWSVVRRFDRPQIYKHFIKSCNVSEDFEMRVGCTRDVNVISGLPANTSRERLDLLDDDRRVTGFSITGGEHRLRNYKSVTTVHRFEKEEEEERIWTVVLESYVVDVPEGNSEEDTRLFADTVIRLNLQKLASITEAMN
Substitution	relative binding score [%]
I57M	-1.08
F47Q	2.5
R49K	48.9
H16F	-0.62
V76T	-0.683
H110F	21.5
P37T	7.1
H55P	75.2
D96S	2.98
E131W	16.4
D97G	9.11
S63V	8.25
G108W	-1.44
E129V	12.3
